Results from different studies.
Protocols differ between the studies behind these lines. ± gives the spread as reported.
POLB I260M: DNA polymerase beta (POLB, Homo sapiens, UniProt P06746, I260M)
SCTR: Secretin receptor (SCTR, Homo sapiens, UniProt P47872)
T1: ssRNA FMR1 5' UTR CGG repeat (Homo sapiens); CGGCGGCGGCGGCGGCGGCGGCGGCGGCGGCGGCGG

Nc1nc2c(ncn2C2CC(O)C(COP(=O)(O)OP(=O)(O)C(Br)P(=O)(O)O)O2)c(=O)[nH]1 (mixture of isomers)  kpol (POLB I260M; nucleotide incorporation rate, substrate, single-turnover kinetics; single-nucleotide gapped DNA; 37 °C, I260M, misincorporation, added: dGTP opposite template A): 0.004 ± 0.0007 s⁻¹
COc1ccc(-c2cc(C(F)(F)F)nc(NCc3ccc(F)cc3)n2)cc1OC  Emax (SCTR; cAMP accumulation, positive allosteric modulator; CHO-K1 overexpressing SCTR; added: EC10-EC20 secretin peptide mix; relative to: EC95 peptide mix): 84 ± 9.1%
CCCCCCCCc1ccc(Oc2ccccc2)c(O)c1  residence time (Enoyl-[acyl-carrier-protein] reductase [NADPH] FabI (Staphylococcus aureus, UniProt Q6GI75); enzyme activity, inhibitor, progress curve kinetics): 29.6 min
CC1(C)CCN(Cc2ccc(C(=O)NC[C@]3(O)CCCN(c4cc(NCc5ccccc5)ncn4)C3)c(O)c2)CC1  remaining activity (Cyclin-dependent kinase 2, with cyclin A (CDK2, Homo sapiens, UniProt P24941); kinase activity, radiometric; 10 µM, added: 10 µM ATP): 83%
CCCN(CC(=O)N(CC(N)=O)Cc1cn(CCCNC(=O)CCCOc2cccc(-c3nc4ccc(-c5nc6ccc(N7CCN(C)CC7)cc6[nH]5)cc4[nH]3)c2)nn1)C(=O)CNCc1cn(CCCNC(=O)CCCOc2cccc(-c3nc4ccc(-c5nc6ccc(N7CCN(C)CC7)cc6[nH]5)cc4[nH]3)c2)nn1  IC50 (T1, ssRNA FMR1 5' UTR CGG repeat (Homo sapiens); protein displacement, competitor, TR-FRET): 18 µM
COc1ccc(-c2cc(C(F)(F)F)nc(S(=O)(=O)CCC(=O)Nc3ccc(C)cc3)n2)cc1  kinact/KI (WRN (Homo sapiens, UniProt Q14191); enzyme activity, inhibitor): 180 M⁻¹ s⁻¹
O=C(O)c1cc(-c2ccc(CN3CCCC(CO)C3)o2)ccc1Cl (centres unmarked)  signal attenuation (DNA dC->dU-editing enzyme APOBEC-3A (Homo sapiens, UniProt P31941); binding, 1H CPMG NMR): 36 ± 11.6%
CSCC[C@H](NC(=O)[C@H](CO)NC(=O)[C@@H](NC(=O)[C@H](CCC(N)=O)NC(=O)[C@@H](CCCNC(=N)N)NC(=O)[C@@H](CCCNC(=N)N)NC(=O)[C@@H](CCCCN)NC(=O)[C@@H](CCCNC(=N)N)NC(C)=O)[C@@H](C)O)C(=O)N[C@H](C(=O)N[C@@H](CC(=O)O)C(=O)N[C@@H](Cc1ccccc1)C(=O)N[C@@H](Cc1ccc(O)cc1)C(=O)N[C@@H](Cc1c[nH]cn1)C(=O)N[C@@H](CO)C(=O)N[C@H](CCCCN)C(=O)N[C@H](CCCNC(=N)N)C(=O)N[C@H](CCCNC(=N)N)C(N)=O)[C@@H](C)O  binding enthalpy ΔH (PCNA (Homo sapiens, UniProt P12004); isothermal titration calorimetry; concentration not given, pH 7.4, 25 °C, 300 mM NaCl, added: p21 peptide): -20.6 ± 0.717 kcal/mol
CC(=O)N[C@@H]1[C@@H](O[C@@H]2O[C@H](C(=O)O)[C@@H](O[C@@H]3O[C@H](COS(=O)(=O)O)[C@@H](OS(=O)(=O)O)[C@H](O[C@@H]4O[C@H](C(=O)O)[C@@H](OS(=O)(=O)O)[C@H](OS(=O)(=O)O)[C@H]4OS(=O)(=O)O)[C@H]3NC(C)=O)[C@H](OS(=O)(=O)O)[C@H]2OS(=O)(=O)O)[C@H](OS(=O)(=O)O)[C@@H](COS(=O)(=O)O)O[C@H]1SCCOCCOCCSSCCOCCOCCS[C@@H]1O[C@H](COS(=O)(=O)O)[C@@H](OS(=O)(=O)O)[C@H](O[C@@H]2O[C@H](C(=O)O)[C@@H](O[C@@H]3O[C@H](COS(=O)(=O)O)[C@@H](OS(=O)(=O)O)[C@H](O[C@@H]4O[C@H](C(=O)O)[C@@H](OS(=O)(=O)O)[C@H](OS(=O)(=O)O)[C@H]4OS(=O)(=O)O)[C@H]3NC(C)=O)[C@H](OS(=O)(=O)O)[C@H]2OS(=O)(=O)O)[C@H]1NC(C)=O  binding affinity ratio (Interleukin-8 (CXCL8, Homo sapiens, UniProt P10145); FP competition; relative to: cpd over monovalent azide analogue, higher = stronger binding): 417 fold
CC1(C)C(/C=C/C2=C(Oc3ccc(CCC(=O)N[C@@H](CSC4CC(=O)N(CCNC(=O)CN5CCN(CC(=O)O)CCN(CC(=O)O)CCN(CC(=O)O)CC5)C4=O)C(=O)NCCCC[C@@H]4NC(=O)[C@@H](Cc5ccc(O)cc5)NC(=O)[C@H](CC(=O)O)NC(=O)CNC(=O)[C@H](CCCNC(=N)N)NC4=O)cc3)C(=C/C=C3/N(CCC[N+](C)(C)C)c4ccc(S(=O)(=O)O)cc4C3(C)C)/CCC2)=[N+](CCC[N+](C)(C)C)c2ccc(S(=O)(=O)O)cc21 (some centres unmarked)  binding potential (integrin αvβ3; dynamic optical imaging, Logan; female athymic nude mouse, MDA-MB-435 xenograft; dose not given, 60 min, unit not given; relative to: muscle): 1.51 ± 0.113
Nc1nc2c(ncn2C2CC(O)C(COP(=O)(O)OP(=O)(O)C(Cl)P(=O)(O)O)O2)c(=O)[nH]1 (mixture of isomers)  kpol (POLB I260M; nucleotide incorporation rate, substrate, single-turnover kinetics; single-nucleotide gapped DNA; 37 °C, I260M, misincorporation, added: dGTP opposite template A): 0.0058 ± 0.001 s⁻¹
Cc1c(C(=O)NNC(=S)Nc2ccc(Cl)cc2)nnn1Cc1nc2ccccc2[nH]1  relative activity (KDR (Homo sapiens, UniProt P35968); inhibitor; concentration not given; relative to: sorafenib): ~45%
CNc1ccccc1C(=O)O[C@H]1C[C@H](n2cnc3c(N)ncnc32)O[C@@H]1COP(=O)(O)OP(=O)(O)O  slow phase amplitude (Unconventional myosin-Va (Gallus gallus, UniProt Q02440, D297C/G292C/I296C/S293C/V295G); stopped-flow FRET; 4–15 °C, added: 4 mM EDTA; relative to: total): ~5%
COc1ccc(-c2cc(C(F)(F)F)nc(S(=O)(=O)CCCC(=O)Nc3ccccc3F)n2)cc1OC  Emax (SCTR; cAMP, agonist): 25%

A few entries again:
Nc1nc2c(ncn2C2CC(O)C(COP(=O)(O)OP(=O)(O)C(Br)P(=O)(O)O)O2)c(=O)[nH]1 (mixture of isomers)  kpol (POLB I260M; nucleotide incorporation rate, substrate, single-turnover kinetics; single-nucleotide gapped DNA; 37 °C, I260M, misincorporation, added: dGTP opposite template A): 0.004 ± 0.0007 s⁻¹
